Assay results pooled from the literature.
Each numbered part is a random draw from the data of one study; scales do not carry over between parts. Positions count from the first letter of the parent shown.
Sequence of UniProt P48730 (whole entry, looked up): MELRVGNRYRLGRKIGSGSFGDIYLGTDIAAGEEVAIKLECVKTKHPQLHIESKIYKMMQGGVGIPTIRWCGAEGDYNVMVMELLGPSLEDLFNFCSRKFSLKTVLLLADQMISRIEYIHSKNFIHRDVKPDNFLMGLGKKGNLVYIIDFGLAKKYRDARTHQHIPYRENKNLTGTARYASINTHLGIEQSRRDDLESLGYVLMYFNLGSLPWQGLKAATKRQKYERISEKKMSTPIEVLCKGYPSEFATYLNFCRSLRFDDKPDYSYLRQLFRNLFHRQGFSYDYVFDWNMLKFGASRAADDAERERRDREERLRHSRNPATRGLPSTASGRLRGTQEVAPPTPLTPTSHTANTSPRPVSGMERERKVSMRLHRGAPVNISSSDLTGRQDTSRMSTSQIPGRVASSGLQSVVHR

Block 1 — method: RNA Bind-n-Seq; form: RNA; sample: in vitro; concentration: 200 nM; notes: whole 134-nt RNA, ends assumed; together with: 150 mM KCl; baseline: input library; reading: higher = stronger binding
Target: Ras GTPase-activating protein-binding protein 1, full length (G3BP1, Homo sapiens, UniProt Q13283)
Sequence of UniProt Q13283 (whole entry, looked up): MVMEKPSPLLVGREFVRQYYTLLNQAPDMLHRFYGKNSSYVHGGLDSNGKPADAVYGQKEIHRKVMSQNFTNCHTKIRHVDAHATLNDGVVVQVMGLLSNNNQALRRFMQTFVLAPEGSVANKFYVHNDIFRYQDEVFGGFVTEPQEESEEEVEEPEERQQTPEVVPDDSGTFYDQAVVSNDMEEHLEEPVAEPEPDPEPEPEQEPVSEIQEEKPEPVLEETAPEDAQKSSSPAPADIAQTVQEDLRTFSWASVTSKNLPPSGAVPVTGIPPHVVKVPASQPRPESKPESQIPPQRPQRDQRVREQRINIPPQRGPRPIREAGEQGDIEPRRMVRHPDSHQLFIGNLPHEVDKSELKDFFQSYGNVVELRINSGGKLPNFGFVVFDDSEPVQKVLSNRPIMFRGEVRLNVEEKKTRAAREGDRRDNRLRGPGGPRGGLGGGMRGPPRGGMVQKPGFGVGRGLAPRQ
Shared flanks, not repeated: GGGAGUUCUACAGUCCGACGAUC … UGGAAUUCUCGGGUGUCAAGG
Sequence | log2 enrichment
UGGCCCUGGUGGCAUGCGGGGAGGAAGAGGUGGCCUCAUGGUUCGUGGUGGUCCCGGUGGAAUGUUCAGAGGUGGCCGUGGUGGAGACAG | 0.0869
CACAGACAAAAAGCACCCACACAGACACAGAGGGAAGGGGUUGGGAUGGGGACAGGGUGCACAGCAGGGCGGGGUAGGACCCCAGCCCCU | 1.82
AAGUCCUGUGCUACACAUCGUAUGUACCGAAUCGGGAAAGGGGAAAGGGAAAGGGGAAAGUAUUAUGUUACGCCGUUCGGAUCUGCACUU | 0.37
ACCAUGCAGGUGGGCAUCUUUGGGAAGUGGGGCAAGAAAGGGAUAGGGAGGGGGGUAACACUUUGGGAACAGGUGGUCCCAGGUCGUUUC | 0.958
UGUCCCUGACUCUCCAUUUCCCCAUCUGAGUGGAUUUGGACCUAAUAGGGCACUGGAGCUGGUUCGAAUCCUGACUGGACUACUUGGCAA | 0.344
CAAGCCAAGGAAAUGGUGUUAGAGUUAAUUCGUGAUCAAGGCGGUUUCAGAGAAGUUCGGAAUGAGUAUGGGUCAAGAAUAGGAGGAAAU | -1.34
CUAGAGAGCUGUAGUACACAUGGAUGAACGACGAGAAGAACAAAUUGUACAGUUACUGAAUUCUGUUCAAGCGAAGAAUGAUAAAGAGUC | 0.402
UUGUGAUAGCCAAGUGGGACUACACCGCCCAGCAGGACCAGGAGCUGGACAUCAAGAAGAACGAGCGGCUGUGGUUGCUGGACGACUCCA | -1.53

Block 2 — method: DHFR PCA, deep sequencing; sample: yeast; together with: (+)-ABA 0 µM; baseline: wild-type fitted maximum; reading: higher = stronger binding
Target: ABI1, truncated, D143A, DHFR fusion (Arabidopsis thaliana)
Notes: methotrexate growth selection, single substitutions
Parent: PYL1, truncated, DHFR fusion (Arabidopsis thaliana); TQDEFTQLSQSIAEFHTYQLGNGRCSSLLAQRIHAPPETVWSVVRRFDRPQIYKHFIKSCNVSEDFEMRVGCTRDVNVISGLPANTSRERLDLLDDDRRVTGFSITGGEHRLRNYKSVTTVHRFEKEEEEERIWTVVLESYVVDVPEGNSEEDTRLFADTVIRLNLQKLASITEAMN
Variant | relative binding score [%]
P83N | 12.4
E139Y | -6.36
S11K | -0.631
P36F | 2.14
Y53L | -0.359
Q2W | 58.4
L20F | 5.57
H55R | 12.5

Block 3 — target: CRIPT, C-terminal peptide; method: DHFR complementation, deep sequencing; sample: yeast; baseline: wild type; reading: higher = weaker binding
Notes: single substitutions, model-inferred values
Parent: ERBIN, PDZ domain 1 (human); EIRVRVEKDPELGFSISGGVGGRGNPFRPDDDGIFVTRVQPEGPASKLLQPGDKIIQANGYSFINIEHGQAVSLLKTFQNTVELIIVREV; partner TKNYKQTSV
Variant | binding free energy change [kcal/mol]
I2A | 0.32
F27P | 0.963
I55W | 1.39
E67C | 0.143
Q57V | 0.03
Q57R | -0.0601
F27E | 0.852
P29F | 0.214

Single results of other studies
SMILES | target | read-out | action | concentration | baseline | endpoint | result
COc1ccc(S(=O)(=O)N(CCO)c2ccccc2CN(C)CC=Cc2ccc(Cl)cc2)cc1 | Casein kinase I isoform delta (CSNK1D, Homo sapiens, UniProt P48730) | enzyme activity | inhibitor | 0.5 µM | control | remaining activity | 102%

Some of these lines once more (block 1):
Sequence | log2 enrichment
CUAGAGAGCUGUAGUACACAUGGAUGAACGACGAGAAGAACAAAUUGUACAGUUACUGAAUUCUGUUCAAGCGAAGAAUGAUAAAGAGUC | 0.402
AAGUCCUGUGCUACACAUCGUAUGUACCGAAUCGGGAAAGGGGAAAGGGAAAGGGGAAAGUAUUAUGUUACGCCGUUCGGAUCUGCACUU | 0.37
